# Experimental data of several laboratories.
# Compare with care: the assays were run in different laboratories. ± marks the error that the study gave.
Structure (SMILES),test,test system,setting,how to read,endpoint,result
O=C(O)[C@@H]1C[C@@H](O)CN1C(=O)[C@@H]1CCCN1,potentiometric titration,water,"25 °C, 0.15 mol/dm3 NaCl",,pKa2,5.9
CC(C)c1cnc(-c2cc(Cl)ccc2F)cc1Nc1ccncc1C(=O)NC(CO)CO,"monotherapy, item: vomiting",human patients,"oral, dose not given, grade 4, phase I A",,patients with treatment-related adverse event,0%
CC[C@H](C)[C@H](NC(=O)[C@H](CC(C)C)NC(=O)[C@H](Cc1c[nH]c2ccccc12)NC(=O)[C@H](C)NC(=O)[C@@H](NC(=O)[C@H](Cc1ccccc1)NC(=O)[C@H](CC(=O)O)NC(=O)[C@H](CCCNC(=N)N)NC(=O)[C@H](C)NC(=O)[C@H](C)NC(=O)[C@H](CC(C)C)NC(=O)[C@H](C)NC(=O)[C@H](CC(=O)O)NC(=O)[C@H](CC(C)C)NC(=O)[C@@H](NC(=O)[C@@H](NC(=O)[C@H](C)NC(=O)[C@H](CC(C)C)NC(=O)[C@H](CCC(=O)O)NC(=O)[C@H](CO)NC(=O)[C@H](CO)NC(=O)[C@H](Cc1ccccc1)NC(=O)[C@@H](NC(=O)CNC(=O)[C@H](CCC(=O)O)NC(=O)CNC(=O)[C@@H](N)Cc1cnc[nH]1)[C@@H](C)O)[C@@H](C)O)[C@@H](C)CC)[C@@H](C)CC)C(=O)N[C@@H](C)C(=O)N[C@H](C(=O)N[C@@H](CCCCN)C(=O)N[C@H](C(=O)N[C@H](C(=O)N[C@@H](CC(=O)O)C(=O)N[C@@H](CCCCN)C(=O)N[C@@H](CCCCN)C(=O)N[C@@H](CCCCN)C(=O)N[C@@H](CCCCN)C(=O)N[C@@H](CCCCN)C(=O)N[C@@H](CCCCN)C(N)=O)[C@@H](C)O)[C@@H](C)CC)[C@@H](C)O,,"healthy humans, plasma","subcutaneous, 5 mg once weekly, 6 doses, day 36, geometric mean",,AUC(0-tau),0.106 µM·h
CCCC[C@H](NC(=O)CNC(=O)CNC(=O)CN1CCN(CC(=O)O)CCN(CC(=O)O)CC1)C(=O)N[C@H]1CC(=O)NCCCC[C@@H](C(N)=O)NC(=O)[C@H](Cc2c[nH]c3ccccc23)NC(=O)[C@H](CCCNC(=N)N)NC(=O)[C@@H](Cc2ccccc2)NC(=O)[C@H](Cc2c[nH]cn2)NC1=O [copper-64 labelled],,"female C57 mouse, B16/F1 melanoma","intravenous, 0.037 MBq, 2 h",reference: tumour over heart,uptake ratio,51.6
O=C(Cn1c(=O)c(Cc2ccccc2)nc2ccccc21)NN1C(=O)c2ccccc2C1=O,MTT,"rat primary colonocytes, Albino rat, male","72 h, concentration at 100% viability",,safe concentration,0.258 ± 0.018 µM
CCCOc1ccc(S(N)(=O)=O)cc1-c1nc2c(CCC)nn(C)c2c(=O)[nH]1,,"healthy male humans, plasma","oral, 200 mg udenafil, with: dapoxetine 60 mg",,terminal half-life,11 ± 3.08 h
COc1ccc2cc(-c3ccc(-c4ccc(C)cn4)nc3)oc2c1,TCSPC,benzene,,,radiative decay rate constant,0.58 ns⁻¹
CCCC[C@H](NC(C)=O)C(=O)N[C@H]1CC(=O)NCCCC[C@@H](C(=O)N[C@@H](C(=O)N2CCC[C@@H]2C(N)=O)C(C)C)NC(=O)[C@H](Cc2c[nH]c3ccccc23)NC(=O)[C@H](CCCN=C(N)N)NC(=O)[C@@H](Cc2ccc3ccccc3c2)NC(=O)[C@@H]2CCCN2C1=O,,"healthy dogs, plasma","subcutaneous, 2.25 mg/kg per day, day 1, 30 min post-dose, median",,plasma histamine,8.02 ng/mL
Oc1ccc2ccccc2c1/N=N/c1ccc(/N=N/c2ccccc2)cc1,,rat whole blood,"5.0 µg/L, 30 days, -20 °C, long-term storage",,stability deviation,1.3%
COC(=O)c1ccc2c(c1)NC(=O)/C2=C(\Nc1ccc2c(c1)CCN2C(=O)CN1CCOCC1)c1ccccc1,,"cynomolgus monkey, plasma","intravenous, 2 mg/kg",,half-life,6.82 h
CC/C=C\C/C=C\C/C=C\C/C=C\C/C=C\CCCCOC(CC)C(=O)O (stereo not shown),"radioactivity, 14C-labelled","Wistar rat, male, whole blood","oral, 100 mg/kg, 1 day",,tissue concentration,2.6 µg equivalents/g tissue
NCCCC(=O)OCC(=O)c1ccc(O)cc1F.O=C(O)C(F)(F)F,"photolysis, item: rearranged acid appearance",aqueous HEPES buffer with LiClO4,pH 8.2,,quantum yield,0.03
O=c1nc(NO)ccn1[C@@H]1O[C@H](CO)[C@@H](O)[C@H]1O,"western blot, item: CYP2E1","rats, CFA-induced arthritis, liver","oral, 80 mg/kg twice daily, 5 days",reference: untreated arthritic rats,protein level,< 0.5 fold
CC1=C(C=O)C(C)(C)CC=C1,,rat blood,"1000 nM, 0 min",,blood-to-plasma ratio,0.88 ± 0.07
CCC1(CC)C[C@@H](NC(=O)Nc2cccc3c(C)nccc23)c2cc(F)ccc2O1,,rat,"intraperitoneal, 3 mg/kg, ambient temperature 26 °C",reference: vehicle,decrease in deep body temperature,~1 °C
NCCCC(=O)OCC(=O)c1cc(F)c(O)c(F)c1.O=C(O)C(F)(F)F,"photolysis, item: rearranged acid appearance",unbuffered water,,,quantum yield,0.1
CCC(=O)N[C@@H](C)C(=O)OCC(=O)N[C@@H](C)C(=O)O,,water,"pH 7, 25 °C",,depolymerization half-life,88.6 h
CC(C)[C@H](NC(=O)[C@@H]1CCCN1C(=O)[C@H](CCCNC(=N)N)NC(=O)[C@H](CS)NC(=O)[C@H](Cc1c[nH]c2ccccc12)NC(=O)[C@H](CCCNC(=N)N)NC(=O)[C@@H](Cc1ccccc1)NC(=O)[C@H](Cc1c[nH]cn1)NC(=O)[C@H](CCC(=O)O)NC(=O)[C@H](CS)NC(=O)[C@H](CS)NC(=O)[C@@H]1CC(=O)N[C@@H](CCCNC(=N)N)C(=O)NCC(=O)N[C@@H](CC(=O)O)C(=O)N[C@H](Cc2ccc(O)cc2)C(=O)N1)C(N)=O [technetium-99m labelled],,"C57 mouse, female, B16/F1 melanoma","intravenous, 0.037 MBq, 0.5 h",reference: tumour over liver,tumour to tissue ratio,3.47
NC12CNCCNCC(NCc3ccc(CNC(=O)CCCC(=O)NCc4ccc(-c5nncnn5)cc4)cc3)(CNCCNC1)CNCCNC2.[64Cu+2],OLINDA dosimetry,total body,"pretargeting, 120-h interval",,mean absorbed dose,0.0316 rad/mCi
CC(C)(O)c1ncc([S@](N)(=O)=NC(=O)Nc2c3c(cc4c2CCC4)CCC3)s1,,"healthy human volunteers, plasma","oral, 50 mg twice daily, day 14, fed, enteric-coated tablet",,Tmax,2.25 h
COCCOCCOCCOCCOCCOCCOCCOCCOCCOCCOCCOCCOCCOCCOCCOCCOCCOCCOCCOCCOCCOCCNC(=O)CCC1(Cc2ccccc2)c2ccccc2-c2ccc(-c3sc(-c4c5c(c(-c6sc(-c7ccc8c(c7)C(CCC(=O)NCCOCCOCCOCCOCCOCCOCCOCCOCCOCCOCCOCCOCCOCCOCCOCCOCCOCCOCCOCCOCCOCCOC)(Cc7ccccc7)c7ccccc7-8)c7c6OCCO7)c6nsnc46)N=S=N5)c4c3OCCO4)cc21 (stereo not shown),DLS and TEM,aqueous solution,,,particle size,240 ± 30 nm
COc1ccc(/C=C/c2ccc(-c3ccc(C)cn3)nc2)cc1,TCSPC,hexanes,,,fluorescence lifetime,0.91 ns
CCCC[C@H](NC(=O)CNC(=O)CNC(=O)CN1CCN(CC(=O)O)CCN(CC(=O)O)CC1)C(=O)N[C@H]1CC(=O)NCCCC[C@@H](C(N)=O)NC(=O)[C@H](Cc2c[nH]c3ccccc23)NC(=O)[C@H](CCCNC(=N)N)NC(=O)[C@@H](Cc2ccccc2)NC(=O)[C@H](Cc2c[nH]cn2)NC1=O [gallium-67 labelled],,"C57 mice, B16/F1 melanoma",2 h,,tumour to skin uptake ratio,46.4
CC[C@@H](C)N([11CH3])C(=O)c1nc(-c2ccc(Cl)cc2)c2ccccc2n1,ultrafiltration,"rhesus monkey, plasma",baseline scan,,plasma free fraction,0.048
COC(=O)C(c1ccccc1Cl)N1CCC(SCC(=O)c2cccc(OC)c2)C(=CC(=O)O)C1 (mixture of isomers),HPLC-MS/MS,feline EDTA plasma,"100 ng/mL, 72 h, 4 °C, storage stability",,deviation from nominal,2%
C[C@H](Oc1cc(-c2cnn(C3CCN(CC[18F])CC3)c2)cnc1N)c1c(Cl)ccc(F)c1Cl,PET imaging,"nude mouse, liver","iv, 10 min post injection",,tracer uptake,7.1 ± 1 %ID/cc
NCCCC(=O)OCC(=O)c1ccc(O)c(C(F)(F)F)c1.O=C(O)C(F)(F)F,"photolysis, item: rearranged acid appearance",aqueous HEPES buffer with LiClO4,pH 7.3,,quantum yield,0.1
CCCC[C@@H]1NC(=O)[C@@H](NC(=O)[C@H](CCC(=O)O)NC(=O)CNC(=O)CN2CCN(CC(=O)O)CCN(CC(=O)O)CCN(CC(=O)O)CC2)CCCCNC(=O)C[C@@H](C(N)=O)NC(=O)[C@H](C(C)C)NC(=O)[C@@H]2CCCN2C(=O)[C@H](CCCNC(=N)N)NC(=O)CNC(=O)[C@H](Cc2c[nH]c3ccccc23)NC(=O)[C@H](CCCNC(=N)N)NC(=O)[C@@H](Cc2ccccc2)NC(=O)[C@H](Cc2c[nH]cn2)NC(=O)[C@H](CCC(=O)O)NC1=O [gallium-67 labelled],,"C57 mice, B16/F1 flank melanoma, tumour","intravenous, 0.037 MBq, 4 h",,tumour uptake,8.12 ± 0.6 %ID/g
COCCOCCOCCC(=O)Oc1ccc(CC(=O)N/C=C/c2ccc(C(F)(F)F)cc2)cc1OC,eye-wiping,"C57BL/6 mice, both sexes","ocular instillation, 1 min",,moderate pain-producing concentration,0.302 mg/mL
CN1CCC[C@]1(C)/C=C/S(=O)(=O)NC(=O)Nc1c2c(cc3c1CCC3)CCC2,,"human, urine","oral, 50 mg single dose",,percent of dose in urine,69.1%
COC(=O)/C=C/C(=O)c1ccc(OC)cc1,,rat plasma,"15 d, -70 °C",,stability,stable
CC(C)[C@H](NC(=O)CNC(=O)[C@H](CCC(N)=O)NC(=O)[C@H](C)N)C(=O)O,LC-MS/MS,"human, male, plasma","intravenous, 10 mg/kg three times daily, day 3, first dose, 10 min infusion, geometric mean",,Cmax,2420 ng/mL
C#CCOc1ccc(/C=C2\SC(=O)N(CC(=O)NCc3ccccc3)C2=O)cc1,inverse Kirkwood-Buff integrals,binary solvent mixture,"concentration not given, 298.15 K, mole fraction x1 0.65",,correlation volume,4720 cm³/mol
CCc1cc(Nc2nc(-c3ccc(-n4cnc(C)c4)c(F)c3)cs2)c(C)cc1C,,"human, both sexes, plasma","oral, 100 mg, day 1, multiple dose, geometric mean",,terminal half-life,7.5 h
N=C(N)NCCC[C@@H]1NC(=O)[C@H](Cc2c[nH]c3ccccc23)NC(=O)[C@@H](CC2CCCCC2)NC(=O)[C@@H]2CCCN2C(=O)[C@@H](NC(=O)CCc2ccccc2)CCCNC1=O,,"C57BL/6J mice, spinal cord","subcutaneous, 1 mg/kg, two-compartment model",,elimination rate constant,0.000347 s⁻¹
COc1cc2c(cc1OC)CN(CCCCn1ccc3cc(OCC[18F])ccc31)C2,,"ICR mice, male, stomach","intravenous, 60 min",,uptake,2.54 ± 0.43 %ID/organ
COc1cc(C)c(Cc2ccc(O)cc2)cc1[C@@H]1S[C@H](CO)[C@@H](O)[C@H](O)[C@H]1O,,"Japanese T2DM patients, urine","5 mg luseogliflozin, day 1, once daily",reference: dose,urinary excretion 0-24 h,6.7 ± 1.18%
Cn1cc2cc1C(=O)NCCCC(=O)Nc1cn(C)c(n1)C(=O)Nc1cn(C)c(n1)C(=O)Nc1cc(n(C)c1)C(=O)Nc1cc(n(C)c1)C(=O)NC[C@H](N)CC(=O)Nc1cc(n(C)c1)C(=O)Nc1cc(n(C)c1)C(=O)Nc1cc(n(C)c1)C(=O)N2,,C57BL/6 mice,"intraperitoneal or subcutaneous, 120 nmol/animal",,circulation time,≥ 48 h
CCCC1OC2CC3C4CCC5=CC(=O)C=CC5(C)C4C(O)CC3(C)C2(C(=O)COC(=O)CN(CC)CC)O1 (stereo not shown),,rat lung homogenate,"200 µg/mL, 37 °C",,time to complete hydrolysis,≤ 2 h
NS(=O)(=O)c1ccc(N2N=C(C(F)(F)F)CC2c2ccc(F)cc2F)cc1 (stereo not shown),,"beagle dog, plasma","oral, 1 mg/kg, single dose",,half-life,31 h
CCCC(CCC)NC(=O)c1ccc(OC2OC(C(=O)O)C(O)C(O)C2O)c(OC)c1 (stereo not shown),,"female Sprague-Dawley rats, plasma","oral, 200 mg/kg of parent drug",reference: 200 over 20 mg/kg dose,Cmax ratio,4.24
COc1cc(NC(C)=O)c2c(c1O)-c1c(OC)c(OC)cc3c1C(C2)N(C)CC3 (stereo not shown),,rat kidney homogenate,"100 µg/mL, time not given, three freeze-thaw cycles",,remaining compound,97.1 ± 2.2%
Cn1c(=O)oc2ccc(-c3ccc(CC(C#N)NC(=O)C4CNCCCO4)c(F)c3)cc21 (stereo not shown),item: skin exfoliation,human,"60 mg single dose, fasted",,subjects with TEAE,16.7%

# Repeated from above:
Structure (SMILES),test,test system,setting,how to read,endpoint,result
COCCOCCOCCOCCOCCOCCOCCOCCOCCOCCOCCOCCOCCOCCOCCOCCOCCOCCOCCOCCOCCOCCNC(=O)CCC1(Cc2ccccc2)c2ccccc2-c2ccc(-c3sc(-c4c5c(c(-c6sc(-c7ccc8c(c7)C(CCC(=O)NCCOCCOCCOCCOCCOCCOCCOCCOCCOCCOCCOCCOCCOCCOCCOCCOCCOCCOCCOCCOCCOCCOC)(Cc7ccccc7)c7ccccc7-8)c7c6OCCO7)c6nsnc46)N=S=N5)c4c3OCCO4)cc21 (stereo not shown),DLS and TEM,aqueous solution,,,particle size,240 ± 30 nm
Cn1cc2cc1C(=O)NCCCC(=O)Nc1cn(C)c(n1)C(=O)Nc1cn(C)c(n1)C(=O)Nc1cc(n(C)c1)C(=O)Nc1cc(n(C)c1)C(=O)NC[C@H](N)CC(=O)Nc1cc(n(C)c1)C(=O)Nc1cc(n(C)c1)C(=O)Nc1cc(n(C)c1)C(=O)N2,,C57BL/6 mice,"intraperitoneal or subcutaneous, 120 nmol/animal",,circulation time,≥ 48 h
COc1cc2c(cc1OC)CN(CCCCn1ccc3cc(OCC[18F])ccc31)C2,,"ICR mice, male, stomach","intravenous, 60 min",,uptake,2.54 ± 0.43 %ID/organ
CCCOc1ccc(S(N)(=O)=O)cc1-c1nc2c(CCC)nn(C)c2c(=O)[nH]1,,"healthy male humans, plasma","oral, 200 mg udenafil, with: dapoxetine 60 mg",,terminal half-life,11 ± 3.08 h
CC(C)[C@H](NC(=O)CNC(=O)[C@H](CCC(N)=O)NC(=O)[C@H](C)N)C(=O)O,LC-MS/MS,"human, male, plasma","intravenous, 10 mg/kg three times daily, day 3, first dose, 10 min infusion, geometric mean",,Cmax,2420 ng/mL
